{"data": "Measurements from different studies", "note": "Numbered parts are unrelated; each lists some results of a single study.", "sequence of UniProt Q9UQM7 (whole entry, looked up)": "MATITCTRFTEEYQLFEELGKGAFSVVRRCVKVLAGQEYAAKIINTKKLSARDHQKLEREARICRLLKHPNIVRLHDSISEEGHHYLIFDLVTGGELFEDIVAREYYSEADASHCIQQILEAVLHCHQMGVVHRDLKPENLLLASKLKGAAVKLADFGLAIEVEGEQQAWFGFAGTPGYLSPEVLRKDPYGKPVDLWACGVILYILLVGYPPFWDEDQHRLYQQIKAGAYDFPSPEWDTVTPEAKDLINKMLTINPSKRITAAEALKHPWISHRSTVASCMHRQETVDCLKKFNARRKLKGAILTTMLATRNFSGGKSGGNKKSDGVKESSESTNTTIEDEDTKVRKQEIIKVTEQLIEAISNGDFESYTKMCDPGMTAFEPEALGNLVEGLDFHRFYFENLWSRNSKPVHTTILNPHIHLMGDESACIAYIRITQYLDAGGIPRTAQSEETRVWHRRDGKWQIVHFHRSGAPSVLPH", "sequence of UniProt Q15375 (whole entry, looked up)": "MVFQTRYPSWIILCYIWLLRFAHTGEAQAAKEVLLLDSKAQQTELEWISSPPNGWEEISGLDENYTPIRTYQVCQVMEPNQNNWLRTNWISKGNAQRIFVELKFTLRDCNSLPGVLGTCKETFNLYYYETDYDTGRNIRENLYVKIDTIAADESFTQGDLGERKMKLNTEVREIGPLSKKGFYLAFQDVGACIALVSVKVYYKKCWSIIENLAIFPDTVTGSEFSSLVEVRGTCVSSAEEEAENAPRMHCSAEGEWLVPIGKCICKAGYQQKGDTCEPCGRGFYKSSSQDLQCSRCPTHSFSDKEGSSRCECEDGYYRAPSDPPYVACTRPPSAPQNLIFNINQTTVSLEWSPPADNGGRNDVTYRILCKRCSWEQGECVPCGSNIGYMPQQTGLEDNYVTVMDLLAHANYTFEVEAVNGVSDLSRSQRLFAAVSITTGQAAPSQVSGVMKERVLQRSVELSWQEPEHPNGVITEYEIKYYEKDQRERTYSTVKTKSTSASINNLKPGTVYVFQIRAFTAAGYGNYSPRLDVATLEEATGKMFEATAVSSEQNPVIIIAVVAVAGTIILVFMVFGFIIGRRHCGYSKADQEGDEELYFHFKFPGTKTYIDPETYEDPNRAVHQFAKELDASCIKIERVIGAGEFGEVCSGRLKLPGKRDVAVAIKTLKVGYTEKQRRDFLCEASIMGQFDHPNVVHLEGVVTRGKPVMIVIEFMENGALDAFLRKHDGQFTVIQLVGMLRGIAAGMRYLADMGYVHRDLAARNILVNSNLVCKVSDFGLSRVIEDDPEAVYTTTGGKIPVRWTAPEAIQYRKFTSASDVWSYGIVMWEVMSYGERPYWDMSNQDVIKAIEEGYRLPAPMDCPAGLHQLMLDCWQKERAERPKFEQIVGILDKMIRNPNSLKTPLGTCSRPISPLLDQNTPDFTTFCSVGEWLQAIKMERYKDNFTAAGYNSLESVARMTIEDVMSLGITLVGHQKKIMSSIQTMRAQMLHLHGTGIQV", "sequence of UniProt Q13976 (whole entry, looked up)": "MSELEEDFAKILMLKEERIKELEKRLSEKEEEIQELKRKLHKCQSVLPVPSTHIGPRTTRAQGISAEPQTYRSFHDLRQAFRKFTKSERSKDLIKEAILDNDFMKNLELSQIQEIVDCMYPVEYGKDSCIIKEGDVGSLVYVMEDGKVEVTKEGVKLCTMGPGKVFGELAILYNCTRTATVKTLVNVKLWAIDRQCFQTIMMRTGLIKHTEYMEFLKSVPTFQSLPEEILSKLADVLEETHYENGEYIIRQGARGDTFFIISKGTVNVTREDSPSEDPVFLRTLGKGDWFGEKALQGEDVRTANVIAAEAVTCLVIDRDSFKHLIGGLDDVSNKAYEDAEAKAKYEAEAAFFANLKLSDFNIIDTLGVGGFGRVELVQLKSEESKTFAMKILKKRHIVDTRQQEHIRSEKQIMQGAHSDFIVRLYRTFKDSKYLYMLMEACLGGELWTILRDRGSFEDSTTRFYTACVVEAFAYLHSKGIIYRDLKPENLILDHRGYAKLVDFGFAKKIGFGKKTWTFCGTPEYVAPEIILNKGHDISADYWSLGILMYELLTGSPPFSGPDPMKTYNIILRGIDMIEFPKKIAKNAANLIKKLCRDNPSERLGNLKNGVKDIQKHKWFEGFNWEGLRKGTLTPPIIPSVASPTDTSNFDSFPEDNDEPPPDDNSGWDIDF", "sequence of UniProt Q07912 (whole entry, looked up)": "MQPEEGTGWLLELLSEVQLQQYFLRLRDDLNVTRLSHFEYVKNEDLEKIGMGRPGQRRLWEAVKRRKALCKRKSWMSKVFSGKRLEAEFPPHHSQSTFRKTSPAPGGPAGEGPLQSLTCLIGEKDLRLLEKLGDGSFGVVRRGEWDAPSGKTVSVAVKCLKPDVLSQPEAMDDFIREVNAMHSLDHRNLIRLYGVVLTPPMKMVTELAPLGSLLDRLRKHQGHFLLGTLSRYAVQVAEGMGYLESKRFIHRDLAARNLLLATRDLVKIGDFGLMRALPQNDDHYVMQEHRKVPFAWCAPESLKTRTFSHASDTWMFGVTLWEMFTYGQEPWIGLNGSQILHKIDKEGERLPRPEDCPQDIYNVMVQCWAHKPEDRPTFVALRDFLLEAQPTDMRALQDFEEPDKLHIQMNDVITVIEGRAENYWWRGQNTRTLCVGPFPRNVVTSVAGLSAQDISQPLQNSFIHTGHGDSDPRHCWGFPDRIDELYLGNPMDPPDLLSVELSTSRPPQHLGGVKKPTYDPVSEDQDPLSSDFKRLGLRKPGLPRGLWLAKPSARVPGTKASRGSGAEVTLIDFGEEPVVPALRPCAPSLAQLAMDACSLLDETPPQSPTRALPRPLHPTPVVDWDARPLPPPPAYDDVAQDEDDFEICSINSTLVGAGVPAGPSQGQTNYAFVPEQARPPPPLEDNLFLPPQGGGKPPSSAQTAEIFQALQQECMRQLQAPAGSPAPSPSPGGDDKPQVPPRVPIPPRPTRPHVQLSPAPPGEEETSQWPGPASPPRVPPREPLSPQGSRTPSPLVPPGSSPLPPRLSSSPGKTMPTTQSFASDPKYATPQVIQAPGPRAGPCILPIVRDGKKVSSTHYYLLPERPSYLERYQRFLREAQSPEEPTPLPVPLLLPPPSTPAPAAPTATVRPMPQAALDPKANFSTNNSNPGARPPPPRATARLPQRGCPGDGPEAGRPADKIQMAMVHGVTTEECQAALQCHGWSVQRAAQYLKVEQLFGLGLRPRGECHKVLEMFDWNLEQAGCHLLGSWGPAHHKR", "sequence of UniProt O95382 (whole entry, looked up)": "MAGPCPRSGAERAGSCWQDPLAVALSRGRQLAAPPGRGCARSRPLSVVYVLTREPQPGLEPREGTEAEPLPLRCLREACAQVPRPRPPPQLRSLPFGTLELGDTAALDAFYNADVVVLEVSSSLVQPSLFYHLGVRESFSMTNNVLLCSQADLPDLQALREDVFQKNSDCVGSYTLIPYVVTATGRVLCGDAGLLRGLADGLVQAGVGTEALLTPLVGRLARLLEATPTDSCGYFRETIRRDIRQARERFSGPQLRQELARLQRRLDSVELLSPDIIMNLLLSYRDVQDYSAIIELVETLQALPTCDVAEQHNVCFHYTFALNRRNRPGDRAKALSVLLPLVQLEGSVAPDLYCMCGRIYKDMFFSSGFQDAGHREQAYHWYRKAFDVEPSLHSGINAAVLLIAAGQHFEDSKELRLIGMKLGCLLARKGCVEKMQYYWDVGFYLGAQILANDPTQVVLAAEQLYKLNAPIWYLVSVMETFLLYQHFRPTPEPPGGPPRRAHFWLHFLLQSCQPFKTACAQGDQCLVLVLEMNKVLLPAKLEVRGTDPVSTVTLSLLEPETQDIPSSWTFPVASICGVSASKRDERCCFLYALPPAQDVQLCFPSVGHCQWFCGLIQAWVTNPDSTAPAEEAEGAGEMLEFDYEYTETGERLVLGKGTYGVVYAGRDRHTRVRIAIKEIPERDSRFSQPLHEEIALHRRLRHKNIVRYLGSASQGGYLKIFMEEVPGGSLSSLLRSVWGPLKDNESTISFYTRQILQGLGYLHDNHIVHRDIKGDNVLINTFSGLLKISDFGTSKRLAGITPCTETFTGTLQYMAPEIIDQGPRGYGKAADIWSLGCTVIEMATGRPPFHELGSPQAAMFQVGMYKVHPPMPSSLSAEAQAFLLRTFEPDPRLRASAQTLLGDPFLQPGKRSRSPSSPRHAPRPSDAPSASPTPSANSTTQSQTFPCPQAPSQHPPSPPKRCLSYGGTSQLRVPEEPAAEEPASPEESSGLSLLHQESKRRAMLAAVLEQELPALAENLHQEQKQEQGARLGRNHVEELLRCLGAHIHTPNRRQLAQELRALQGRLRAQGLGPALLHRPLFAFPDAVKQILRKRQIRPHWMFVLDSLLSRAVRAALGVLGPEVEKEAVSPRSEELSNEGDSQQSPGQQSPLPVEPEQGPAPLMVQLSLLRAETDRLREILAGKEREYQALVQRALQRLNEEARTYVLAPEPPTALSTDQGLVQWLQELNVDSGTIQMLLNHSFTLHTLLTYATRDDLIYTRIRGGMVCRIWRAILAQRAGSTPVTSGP", "sequence of UniProt Q9UBE8 (whole entry, looked up)": "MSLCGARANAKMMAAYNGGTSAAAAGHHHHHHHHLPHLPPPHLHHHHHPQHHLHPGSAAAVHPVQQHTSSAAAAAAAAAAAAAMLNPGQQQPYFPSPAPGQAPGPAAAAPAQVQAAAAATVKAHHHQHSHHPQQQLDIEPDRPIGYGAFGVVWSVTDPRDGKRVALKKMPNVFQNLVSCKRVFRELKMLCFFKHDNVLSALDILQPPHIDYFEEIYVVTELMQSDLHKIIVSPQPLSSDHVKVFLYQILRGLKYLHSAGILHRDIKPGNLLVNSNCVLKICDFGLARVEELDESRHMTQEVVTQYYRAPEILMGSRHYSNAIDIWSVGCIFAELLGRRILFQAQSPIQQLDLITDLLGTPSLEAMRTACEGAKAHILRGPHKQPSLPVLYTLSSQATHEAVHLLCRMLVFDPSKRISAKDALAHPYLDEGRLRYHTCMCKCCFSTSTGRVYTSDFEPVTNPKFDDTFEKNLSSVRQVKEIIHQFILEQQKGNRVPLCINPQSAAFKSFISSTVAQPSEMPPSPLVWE"}
{"data": "Block 1", "Structure (SMILES)": "C[C@H](NC(=O)c1cnc2n1[C@](C)(Cc1ccc(C#N)cc1)C(=O)N2c1cc(Cl)c(F)c(Cl)c1)C(=O)NC1(c2ccccn2)CC1", "read-out": "cell-free assay", "method": "competition with immobilised ligand", "concentration": "1 µM"}
{"target": "PRKG1 (Homo sapiens, UniProt Q13976)", "remaining binding": "62%"}
{"target": "CAMK2A (Homo sapiens, UniProt Q9UQM7)", "remaining binding": "96%"}
{"target": "BRSK1 (Homo sapiens, UniProt Q8TDC3)", "remaining binding": "100%"}
{"target": "Tyrosine-protein kinase ABL1, phosphorylated (ABL1, Homo sapiens, UniProt P00519, Q252H)", "remaining binding": "100%"}
{"target": "STK4 (Homo sapiens, UniProt Q13043)", "remaining binding": "100%"}
{"target": "CLK4 (Homo sapiens, UniProt Q9HAZ1)", "remaining binding": "88%"}
{"target": "PRKCD (Homo sapiens, UniProt Q05655)", "remaining binding": "100%"}
{"target": "Ribosomal protein S6 kinase alpha-2, C-terminal kinase domain (RPS6KA2, Homo sapiens, UniProt Q15349)", "remaining binding": "94%"}
{"target": "TNK2 (Homo sapiens, UniProt Q07912)", "remaining binding": "94%"}
{"target": "NLK (Homo sapiens, UniProt Q9UBE8)", "remaining binding": "100%"}
{"target": "KIT (Homo sapiens, UniProt P10721)", "remaining binding": "91%"}
{"target": "TAOK1 (Homo sapiens, UniProt Q7L7X3)", "remaining binding": "86%"}
{"target": "Tyrosine-protein kinase ABL1, phosphorylated (ABL1, Homo sapiens, UniProt P00519, M351T)", "remaining binding": "100%"}
{"data": "Block 2", "method": "PRP chromatography estimate", "sample": "1,9-decadiene/PBS", "pH": "7.4"}
{"SMILES": "CC(C)C[C@@H]1NC(=O)[C@H](C)NC(=O)[C@H](CCC(=O)N2CCCC2)NC(=O)[C@H](CCC(=O)N2CCCC2)NC(=O)[C@@H](CCC(=O)N2CCCC2)NC(=O)[C@H](CC(C)C)NC(=O)[C@@H](CC(C)C)NC1=O", "logD": -3.11}
{"SMILES": "CC(C)C[C@@H]1NC(=O)[C@H](CC(C)C)NC(=O)[C@@H](CC(C)C)NC(=O)[C@H](Cc2cscn2)NC(=O)[C@@H](CCC(=O)N2CCCC2)NC(=O)[C@H](Cc2cscn2)NC(=O)[C@H](C)NC1=O", "logD": -2.87}
{"SMILES": "CC(C)C[C@@H]1NC(=O)[C@H](Cc2cscn2)NC(=O)[C@H](Cc2cscn2)NC(=O)[C@H](CCC(=O)N2CCCC2)NC(=O)[C@@H](CCC(=O)N2CCCC2)NC(=O)[C@H](CC(C)C)NC(=O)[C@@H](CC(C)C)NC1=O", "logD": -2.26}
{"SMILES": "CC(C)C[C@@H]1NC(=O)[C@H](CC(C)C)NC(=O)[C@H](CC(C)C)NC(=O)[C@H](C(C)C)NC(=O)[C@@H](Cc2cscn2)NC(=O)[C@H](Cc2cscn2)NC(=O)[C@H](CCC(=O)N2CCCC2)NC1=O", "logD": -1.62}
{"SMILES": "CC(C)C[C@@H]1NC(=O)[C@H](Cc2cscn2)NC(=O)[C@H](CCC(=O)N2CCCC2)NC(=O)[C@@H](CCC(=O)N2CCCC2)NC(=O)[C@H](CC(C)C)NC(=O)[C@@H](CC(C)C)NC(=O)[C@H](CC(C)C)NC1=O", "logD": -1.26}
{"SMILES": "CC(C)C[C@@H]1NC(=O)[C@H](C)NC(=O)[C@@H](CC(C)C)NC(=O)[C@H](C)NC(=O)[C@H](C)NC(=O)[C@H](CC(C)C)NC(=O)[C@@H](CC(C)C)NC1=O", "logD": -1.89}
{"SMILES": "CC(C)C[C@@H]1NC(=O)[C@H](CCC(=O)N2CCCC2)NC(=O)[C@H](CCC(=O)N2CCCC2)NC(=O)[C@@H](Cc2cscn2)NC(=O)[C@H](CC(C)C)NC(=O)[C@@H](CC(C)C)NC(=O)[C@H](CC(C)C)NC1=O", "logD": -1.22}
{"data": "Block 3", "Structure (SMILES)": "O=C(Nc1cnn(-c2csc(C(=O)NC3COC3)c2)c1)Nc1ccccc1Cl", "read-out": "enzyme activity", "concentration": "5 µM", "relative to": "untreated control"}
{"target": "EPHA7 (Homo sapiens, UniProt Q15375)", "remaining activity [%]": 101}
{"target": "STK39 (Homo sapiens, UniProt Q9UEW8)", "remaining activity [%]": 83.3}
{"target": "Cyclin-dependent kinase 2, with cyclin A (CDK2, Homo sapiens, UniProt P24941)", "remaining activity [%]": 92.3}
{"target": "DYRK1A (Homo sapiens, UniProt Q13627)", "remaining activity [%]": 85.5}
{"target": "MAP3K6 (Homo sapiens, UniProt O95382)", "remaining activity [%]": 94.3}
{"data": "Block 4", "target": "Calcium/calmodulin-dependent protein kinase type II subunit alpha (CAMK2A, Homo sapiens, UniProt Q9UQM7)", "read-out": "enzyme activity", "mode": "inhibitor", "concentration": "10 µM"}
{"Structure (SMILES)": "CC1(C)CCC(CN2CCN(c3ccc(C(=O)NS(=O)(=O)c4ccc(NCC5CCOCC5)c([N+](=O)[O-])c4)c(Oc4cnc5[nH]ccc5c4)c3)CC2)=C(c2ccc(Cl)cc2)C1", "inhibition [%]": -4}
{"Structure (SMILES)": "O=C1CCNC(=O)N1", "inhibition [%]": -1}
{"Structure (SMILES)": "C[C@H](C[C@H](O)[C@@H](O)C(C)(C)O)C1=C2C[C@H](O)[C@H]3[C@@]4(C)CCC(=O)C(C)(C)[C@@H]4CC[C@]3(C)[C@@]2(C)CC1", "inhibition [%]": -26}
{"Structure (SMILES)": "CC1(C)CC[C@]2(C(=O)O)[C@H](O)C[C@]3(C)C(=CC[C@@H]4[C@@]5(C)CC[C@H](O)C(C)(C)[C@@H]5CC[C@]43C)[C@@H]2C1", "inhibition [%]": -12}
{"Structure (SMILES)": "CC(=O)N[C@@H](CC(C)C)C(=O)O", "inhibition [%]": -19}
{"Structure (SMILES)": "COC(=O)C1=CO[C@@H](O[C@@H]2O[C@H](CO[C@@H]3O[C@H](CO)[C@@H](O)[C@H](O)[C@H]3O)[C@@H](O)[C@H](O)[C@H]2O)[C@@H]2C(CO)=CC[C@H]12", "inhibition [%]": -36}
{"note": "For quick reference, copied from above (block 2):"}
{"SMILES": "CC(C)C[C@@H]1NC(=O)[C@H](CCC(=O)N2CCCC2)NC(=O)[C@H](CCC(=O)N2CCCC2)NC(=O)[C@@H](Cc2cscn2)NC(=O)[C@H](CC(C)C)NC(=O)[C@@H](CC(C)C)NC(=O)[C@H](CC(C)C)NC1=O", "logD": -1.22}
{"SMILES": "CC(C)C[C@@H]1NC(=O)[C@H](Cc2cscn2)NC(=O)[C@H](Cc2cscn2)NC(=O)[C@H](CCC(=O)N2CCCC2)NC(=O)[C@@H](CCC(=O)N2CCCC2)NC(=O)[C@H](CC(C)C)NC(=O)[C@@H](CC(C)C)NC1=O", "logD": -2.26}
